Published values pooled from the literature.
Numbered parts are unrelated; each lists some results of a single study. Positions count from the first letter of the parent shown.

Study 1 — target: ATF3, bZIP domain (human); technique: DHFR protein complementation; medium: yeast; reference: wild-type JUN-FOS pair; reading: higher = stronger binding
Notes: single substitutions, most at no-binding floor
Starting sequence: JUN, bZIP domain (human); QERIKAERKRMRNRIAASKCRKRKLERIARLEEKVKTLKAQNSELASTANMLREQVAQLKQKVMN; partner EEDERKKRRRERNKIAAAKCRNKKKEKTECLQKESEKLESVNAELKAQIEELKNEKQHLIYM
Variant | binding fitness [natural log]
M51K | -0.072
K39C | -0.575
L45F | -0.58
I28N | -0.266
A40M | -0.00944
T37K | -0.0505
L45S | -1.28
K36M | -0.0132

Study 2 — technique: universal PBM; form: double-stranded DNA, one strand shown; medium: in vitro; tested at: not given; reading: higher = stronger binding
Target: Sal-like protein 4, full length isoform B (SALL4, Homo sapiens, UniProt Q9UJQ4-2, residues 1-616)
Notes: 8-mer, flanks averaged, mean of replicates
Construct (chain): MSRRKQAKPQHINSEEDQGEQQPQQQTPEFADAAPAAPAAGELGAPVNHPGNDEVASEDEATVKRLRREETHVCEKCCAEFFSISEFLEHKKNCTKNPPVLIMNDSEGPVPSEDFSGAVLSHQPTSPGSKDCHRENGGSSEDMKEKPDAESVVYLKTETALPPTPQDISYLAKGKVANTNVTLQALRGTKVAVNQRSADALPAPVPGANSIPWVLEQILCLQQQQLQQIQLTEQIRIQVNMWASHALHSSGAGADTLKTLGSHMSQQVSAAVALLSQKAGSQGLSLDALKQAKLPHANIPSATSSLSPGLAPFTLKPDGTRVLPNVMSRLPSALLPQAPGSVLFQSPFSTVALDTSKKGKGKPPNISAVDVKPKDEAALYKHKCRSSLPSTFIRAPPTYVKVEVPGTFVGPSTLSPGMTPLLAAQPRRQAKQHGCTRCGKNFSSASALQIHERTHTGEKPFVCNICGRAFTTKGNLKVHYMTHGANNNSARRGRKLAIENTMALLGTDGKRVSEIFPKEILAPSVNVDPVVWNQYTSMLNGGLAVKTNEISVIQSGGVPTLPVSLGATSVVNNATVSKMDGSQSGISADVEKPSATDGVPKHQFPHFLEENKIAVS
Oligonucleotide | E-score
AGACGCAT | 0.0548
AATAGATC | 0.163
CAACTACA | 0.215
TAAACATA | 0.346
AATGGGGA | -0.079
CACTATTC | 0.13
CTCTAAGA | -0.0658
ACGTACAT | 0.201

Study 3 — target: UBE2A UBC core domain (UniProt P49459); technique: yeast two-hybrid; medium: yeast; notes: mostly zero background; reference: not given; reading: higher = stronger interaction
Chain of UniProt P49459 (whole entry, looked up): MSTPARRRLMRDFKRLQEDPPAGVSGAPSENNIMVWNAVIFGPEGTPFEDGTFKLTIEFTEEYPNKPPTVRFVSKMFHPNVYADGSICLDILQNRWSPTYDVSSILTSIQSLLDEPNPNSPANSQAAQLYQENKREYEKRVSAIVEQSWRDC
B1: TRIM5 RING domain (UniProt Q9C035); chain LREVKLSPEGQKVDHCARHGEKLLLFCQEDGKVICWLCERSQEHRGHHTFLTEEVAREYQVKL
B2: TRIML1 RING domain (UniProt Q8N9V2); chain LMENLREELTCFICLDYFSSPVTTECGHSFCLVCLLRSWEEHNTPLSCPECWRTLEGPHFQS
B3: TRIM5 RING domain (UniProt Q9C035); chain ILVNVKEEVTCPICLELLTQPLSLDCGHSFCQACLTANHKKSMLDKGESSCPVCRISYQPENIRP
B4: RC3H1 RING domain (UniProt Q5TC82); chain QAPQWTDFLSCPICTQTFDETIRKPISLGCGHTVCKMCLNKLHRKACPFDQTTINTDIELL
B5: MKRN1 RING domain (UniProt Q9UHC7); chain FAVQRSKDMVCGICMEVVYEKANPSERRFGILSNCNHTYCLKCIRKWRSAKQFESKIIKSCPECRITSNFVIPSE
B6: VPS41 RING domain (UniProt P49754); chain KGVLVDEENICESCLSPILPSDAAKPFSVVVFHCRHMFHKECLPMPSMNSAAQFCNICSAKNRGPGSAI
Molecule | lacZ reporter activity
GAAPGPEAAECLVCSELALLVLFSPCQHRTVCEECARRMKKCIRCQVVVSKKLRPD (MIB2 RING domain (UniProt Q96AX9)) | 0
B1 (TRIM5 RING domain) | 0
PAELEVQASECVVCLEREAQMIFLNCGHVCCCQQCCQPLRTCPLCRQDIAQRLRIY (LRSAM1 RING domain (UniProt Q6UWE0)) | 0
B2 (TRIML1 RING domain) | 0
B3 (TRIM5 RING domain) | 0
MPIRALCTICSDFFDHSRDVAAIHCGHTFHLQCLIQWFETAPSRTCPQCRIQVGKRTIIN (TRAIP RING domain (UniProt Q9BWF2)) | 0
B4 (RC3H1 RING domain) | 0
B5 (MKRN1 RING domain) | 0
FQGDVDEDLICPICSGVLEEPVQAPHCEHAFCNACITQWFSQQQTCPVDRSVVTVAHLRP (RNF41 RING domain (UniProt Q9H4P4)) | 0
B6 (VPS41 RING domain) | 0

Study 4 — read-out: peptide-MHC binding; form: peptide; tested at: concentration not given
Target: HLA class I histocompatibility antigen, A alpha chain, allele A*80:01 (Homo sapiens, UniProt P04439)
Molecule | binding
EFKSRFFVM | inactive
MAYGFFNNI | inactive
HLLCQAFSV | inactive
LELIGNAES | inactive
LTAPCDIYV | inactive
LLIQGLKTV | inactive

For quick reference, copied from above (study 3):
Molecule | lacZ reporter activity
GAAPGPEAAECLVCSELALLVLFSPCQHRTVCEECARRMKKCIRCQVVVSKKLRPD (MIB2 RING domain (UniProt Q96AX9)) | 0
B1 (TRIM5 RING domain) | 0
PAELEVQASECVVCLEREAQMIFLNCGHVCCCQQCCQPLRTCPLCRQDIAQRLRIY (LRSAM1 RING domain (UniProt Q6UWE0)) | 0
B2 (TRIML1 RING domain) | 0
B3 (TRIM5 RING domain) | 0
